# Experimental data gathered from unrelated publications.
# Lines come from different studies, so protocols differ. Numbers after ± are the reported error.
# Fibroin-modulator-binding protein-1: Fibroin-modulator-binding protein-1 99-193 (Bombyx mori, UniProt Q5FBS0)
# B1: POMP (Homo sapiens, UniProt Q9Y244); chain MNARGLGSELKDSIPVTELSASGPFESHDLLRKGFSCVKNELLPSHPLELSEKNFQLNQDKMNFSTLRNIQGLFAPLKLQMEFKAVQQVQRLPFLSSSNLSLDVLRGNDETIGFEDILNDPSQSEVMGEPHLMVEYKLGLL
# B2: PRKCQ (Homo sapiens, UniProt Q04759); sequence looked up; chain MSPFLRIGLSNFDCGSCQSCQGEAVNPYCAVLVKEYVESENGQMYIQKKPTMYPPWDSTFDAHINKGRVMQIIVKGKNVDLISETTVELYSLAERCRKNNGKTEIWLELKPQGRMLMNARYFLEMSDTKDMNEFETEGFFALHQRRGAIKQAKVHHVKCHEFTATFFPQPTFCSVCHEFVWGLNKQGYQCRQCNAAIHKKCIDKVIAKCTGSAINSRETMFHKERFKIDMPHRFKVYNYKSPTFCEHCGTLLWGLARQGLKCDACGMNVHHRCQTKVANLCGINQKLMAEALAMIESTQQARCLRDTEQIFREGPVEIGLPCSIKNEARPPCLPTPGKREPQGISWESPLDEVDKMCHLPEPELNKERPSLQIKLKIEDFILHKMLGKGSFGKVFLAEFKKTNQFFAIKALKKDVVLMDDDVECTMVEKRVLSLAWEHPFLTHMFCTFQTKENLFFVMEYLNGGDLMYHIQSCHKFDLSRATFYAAEIILGLQFLHSKGIVYRDLKLDNILLDKDGHIKIADFGMCKENMLGDAKTNTFCGTPDYIAPEILLGQKYNHSVDWWSFGVLLYEMLIGQSPFHGQDEEELFHSIRMDNPFYPRWLEKEAKDLLVKLFVREPEKRLGVRGDIRQHPLFREINWEELERKEIDPPFRPKVKSPFDCSNFDKEFLNEKPRLSFADRALINSMDQNMFRNFSFMNPGMERLIS
# B3: EFR3A 721-791 F755A (Homo sapiens, UniProt Q14156); chain SNTEEITFEALKKAIDTSGMEEQEKEKRRLVIEKAQKAPFEEIAAQCESKANLLHDRLAQILELTIRPPPS
# B4: POLDIP2 52-368 H225A (Homo sapiens, UniProt Q9Y2S7); sequence looked up; chain SSRNRPEGKVLETVGVFEVPKQNGKYETGQLFLHSIFGYRGVVLFPWQARLYDRDVASAAPEKAENPAGHGSKEVKGKTHTYYQVLIDARDCPHISQRSQTEAVTFLANHDDSRALYAIPGLDYVSHEDILPYTSTDQVPIQHELFERFLLYDQTKAPPFVARETLRAWQEKNAPWLELSDVHRETTENIRVTVIPFYMGMREAQNSHVYWWRYCIRLENLDSDVVQLRERHWRIFSLSGTLETVRGRGVVGREPVLSKEQPAFQYSSHVSLQASSGHMWGTFRFERPDGSHFDVRIPPFSLESNKDEKTPPSGLHW
# B5: RAB32 T39N (Homo sapiens, UniProt Q13637); sequence looked up; chain MAGGGAGDPGLGAAAAPAPETREHLFKVLVIGELGVGKNSIIKRYVHQLFSQHYRATIGVDFALKVLNWDSRTLVRLQLWDIAGQERFGNMTRVYYKEAVGAFVVFDISRSSTFEAVLKWKSDLDSKVHLPNGSPIPAVLLANKCDQNKDSSQSPSQVDQFCKEHGFAGWFETSAKDNINIEEAARFLVEKILVNHQSFPNEENDVDKIKLDQETLRAENKSQCC
# B6: YDJ1 residues 1-109 G70N (Saccharomyces cerevisiae, UniProt P25491); chain GEFGSMVKETKFYDILGVPVTATDVEIKKAYRKCALKYHPDKNPSEEAAEKFKEASAAYEILSDPEKRDIYDQFNEDGLSGAGGAGGFPGGGFGFGDDIFSQFFGAGGAQRPRG
# B7: PRDX6 (Homo sapiens, UniProt P30041); sequence looked up; chain MPGGLLLGDVAPNFEANTTVGRIRFHDFLGDSWGILFSHPRDFTPVCTTELGRAAKLAPEFAKRNVKLIALSIDSVEDHLAWSKDINAYNCEEPTEKLPFPIIDDRNRELAILLGMLDPAEKDEKGMPVTARVVFVFGPDKKLKLSILYPATTGRNFDEILRVVISLQLTAEKRVATPVDWKDGDSVMVLPTIPEEEAKKLFPKGVFTKELPSGKKYLRYTPQP
# B8: POL30 1-258 (Saccharomyces cerevisiae, UniProt P15873); chain MLEAKFEEASLFKRIIDGFKDCVQLVNFQCKEDGIIAQAVDDSRVLLVSLEIGVEAFQEYRCDHPVTLGMDLTSLSKILRCGNNTDTLTLIADNTPDSIILLFEDTKKDRIAEYSLKLMDIDADFLKIEELQYDSTLSLPSSEFSKIVRDLSQLSDSINIMITKETIKFVADGDIGSGSVIIKPFVDMEHPETSIKLEMDQPVDLTFGAKYLLDIIKGSSLSDRVGIRLSSEAPALFQFDLKSGFLQFFLAPKFNDEE
# B9: CCA1 204-405 (Arabidopsis thaliana, UniProt P92973); sequence looked up; chain ESNSDLNAKSLENGNEQGPQTYPMHIPVLVPLGSSITSSLSHPPSEPDSHPHTVAGDYQSFPNHIMSTLLQTPALYTAATFASSFWPPDSSGGSPVPGNSPPNLAAMAAATVAAASAWWAANGLLPLCAPLSSGGFTSHPPSTFGPSCDVEYTKASTLQHGSVQSREQEHSEASKARSSLDSEDVENKSKPVCHEQPSATPE
# B10: IGFBP7 30-159 Q150A (Homo sapiens, UniProt Q16270); chain DTCGPCEPASCPPLPPLGCLLGETRDACGCCPMCARGEGEPCGGGGAGRGYCAPGMECVKSRKRRKGKAGAAAGGPGVSGVCVCKSRYPVCGSDGTTYPSGCQLRAASQRAESRGEKAITAVSKGTCEQG
# B11: HY5 (Arabidopsis thaliana, UniProt O24646); sequence looked up; chain MQEQATSSLAASSLPSSSERSSSSAPHLEIKEGIESDEEIRRVPEFGGEAVGKETSGRESGSATGQERTQATVGESQRKRGRTPAEKENKRLKRLLRNRVSAQQARERKKAYLSELENRVKDLENKNSELEERLSTLQNENQMLRHILKNTTGNKRGGGGGSNADASL
# B12: ATG9 2-318 (Saccharomyces cerevisiae, UniProt Q12142); sequence looked up; chain ERDEYQLPNSHGKNTFLSRIFGLQSDEVNPSLNSQEMSNFPLPDIERGSSLLHSTNDSREDVDENDLRVPESDQGTSTEEEDEVDEEQVQAYAPQISDGLDGDHQLNSVTSKENVLETEKSNLERLVEGSTDDSVPKVGQLSSEEEEDNEFINNDGFDDDTPLFQKSKIHEFSSKKSNTIEDGKRPLFFRHILQNNRPQRDTQKLFTSSNAIHHDKDKSANNGPRNINGNQKHGTKYFGSATQPRFTGSPLNNTNRFTKLFPLRKPNLLSNISVLNNTPEDRINTLSVKERALWKWANVENLDIFLQDVYNYYLGNG
# B13: SKI7 1-235 (Saccharomyces cerevisiae, UniProt Q08491); sequence looked up; chain MSLLEQLARKRIEKSKGLLSADQSHSTSKSASLLERLHKNRETKDNNAETKRKDLKTLLAKDKVKRSDFTPNQHSVSLSLKLSALKKSNSDLEKQGKSVTLDSKENELPTKRKSPDDKLNLEESWKAIKEMNHYCFLKNDPCINQTDDFAFTNFIIKDKKNSLSTSIPLSSQNSSFLSLKKHNNELLGIFVPCNLPKTTRKVAIENFNRPSPDDIIQSAQLNAFNEKLENLNIKS
# B14: Sgip1 69-156 (Mus musculus, UniProt Q8VD37); chain AEIDWERYNSPELDEEGYSIRPEEPGSTKGKHFYSSSESEEEEESHKKFNIKIKPLQSKDVLKNAATVDELKASIGNIALSPSPVRKS
# B15: AIR2 1-223 C84S/C104S (Saccharomyces cerevisiae, UniProt Q12476); sequence looked up; chain MEKNTAPFVVDTAPTTPPDKLVAPSIEEVNSNPNELRALRGQGRYFGVSDDDKDAIKEAAPKCNNCSQRGHLKKDCPHIICSYSGATDDHYSRHCPKAIQCSKSDEVGHYRSQCPHKWKKVQCTLCKSKKHSKERCPSIWRAYILVDDNEKAKPKVLPFHTIYCYNCGGKGHFGDDCKEKRSSRVPNEDGSAFTGSNLSVELKQEYYRHMNRNSDENEDYQFS
# Chain of UniProt Q9LHF5 (whole entry, looked up): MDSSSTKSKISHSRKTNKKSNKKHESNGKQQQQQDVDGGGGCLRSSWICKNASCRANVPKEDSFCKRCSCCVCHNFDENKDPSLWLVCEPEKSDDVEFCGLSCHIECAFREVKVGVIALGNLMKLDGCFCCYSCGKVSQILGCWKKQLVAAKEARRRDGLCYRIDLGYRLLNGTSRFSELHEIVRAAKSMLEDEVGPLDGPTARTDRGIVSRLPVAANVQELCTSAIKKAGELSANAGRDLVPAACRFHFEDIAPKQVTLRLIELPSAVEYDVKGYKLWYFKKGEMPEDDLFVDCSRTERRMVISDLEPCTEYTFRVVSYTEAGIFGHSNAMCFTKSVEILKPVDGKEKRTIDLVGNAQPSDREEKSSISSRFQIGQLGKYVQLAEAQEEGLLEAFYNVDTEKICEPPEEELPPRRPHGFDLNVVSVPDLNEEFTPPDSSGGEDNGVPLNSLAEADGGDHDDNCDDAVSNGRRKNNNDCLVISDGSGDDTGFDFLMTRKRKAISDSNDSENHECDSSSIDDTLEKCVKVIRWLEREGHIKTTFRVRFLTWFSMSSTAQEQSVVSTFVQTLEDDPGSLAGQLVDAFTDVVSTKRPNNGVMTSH
# Chain of UniProt Q9UBZ9 (whole entry, looked up): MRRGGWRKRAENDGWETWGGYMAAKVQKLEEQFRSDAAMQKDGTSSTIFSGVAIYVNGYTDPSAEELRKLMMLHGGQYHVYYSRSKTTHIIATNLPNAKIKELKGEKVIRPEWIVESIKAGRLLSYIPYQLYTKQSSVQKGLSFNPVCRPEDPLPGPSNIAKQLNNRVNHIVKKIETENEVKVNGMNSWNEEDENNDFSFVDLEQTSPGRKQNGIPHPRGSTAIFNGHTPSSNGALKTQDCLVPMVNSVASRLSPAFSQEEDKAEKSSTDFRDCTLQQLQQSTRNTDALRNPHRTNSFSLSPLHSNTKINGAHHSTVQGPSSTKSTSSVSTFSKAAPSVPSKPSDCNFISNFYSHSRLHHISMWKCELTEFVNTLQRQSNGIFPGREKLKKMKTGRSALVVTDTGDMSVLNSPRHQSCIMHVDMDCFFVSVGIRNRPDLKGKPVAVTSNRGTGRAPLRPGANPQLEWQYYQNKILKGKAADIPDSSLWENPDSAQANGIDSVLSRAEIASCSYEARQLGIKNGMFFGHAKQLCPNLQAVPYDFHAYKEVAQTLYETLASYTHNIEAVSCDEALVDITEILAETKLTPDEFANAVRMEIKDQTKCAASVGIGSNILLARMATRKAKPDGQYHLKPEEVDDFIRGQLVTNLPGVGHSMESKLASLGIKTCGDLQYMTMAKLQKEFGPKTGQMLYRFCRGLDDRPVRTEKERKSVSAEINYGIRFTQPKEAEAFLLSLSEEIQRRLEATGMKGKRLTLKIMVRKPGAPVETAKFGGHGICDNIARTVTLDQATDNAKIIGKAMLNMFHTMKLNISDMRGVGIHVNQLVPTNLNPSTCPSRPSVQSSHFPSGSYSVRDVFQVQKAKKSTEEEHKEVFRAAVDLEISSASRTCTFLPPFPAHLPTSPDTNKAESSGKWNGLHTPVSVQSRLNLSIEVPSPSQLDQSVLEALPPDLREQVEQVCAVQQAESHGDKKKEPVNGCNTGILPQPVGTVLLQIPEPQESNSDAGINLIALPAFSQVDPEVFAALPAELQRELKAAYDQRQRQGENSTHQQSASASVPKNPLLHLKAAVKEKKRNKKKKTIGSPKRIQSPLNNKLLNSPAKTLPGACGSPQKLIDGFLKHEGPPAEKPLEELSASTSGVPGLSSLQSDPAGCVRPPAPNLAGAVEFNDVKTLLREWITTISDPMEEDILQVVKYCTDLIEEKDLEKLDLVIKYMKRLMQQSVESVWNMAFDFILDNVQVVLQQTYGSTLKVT
# Chain of UniProt P17883 (whole entry, unmodified, looked up): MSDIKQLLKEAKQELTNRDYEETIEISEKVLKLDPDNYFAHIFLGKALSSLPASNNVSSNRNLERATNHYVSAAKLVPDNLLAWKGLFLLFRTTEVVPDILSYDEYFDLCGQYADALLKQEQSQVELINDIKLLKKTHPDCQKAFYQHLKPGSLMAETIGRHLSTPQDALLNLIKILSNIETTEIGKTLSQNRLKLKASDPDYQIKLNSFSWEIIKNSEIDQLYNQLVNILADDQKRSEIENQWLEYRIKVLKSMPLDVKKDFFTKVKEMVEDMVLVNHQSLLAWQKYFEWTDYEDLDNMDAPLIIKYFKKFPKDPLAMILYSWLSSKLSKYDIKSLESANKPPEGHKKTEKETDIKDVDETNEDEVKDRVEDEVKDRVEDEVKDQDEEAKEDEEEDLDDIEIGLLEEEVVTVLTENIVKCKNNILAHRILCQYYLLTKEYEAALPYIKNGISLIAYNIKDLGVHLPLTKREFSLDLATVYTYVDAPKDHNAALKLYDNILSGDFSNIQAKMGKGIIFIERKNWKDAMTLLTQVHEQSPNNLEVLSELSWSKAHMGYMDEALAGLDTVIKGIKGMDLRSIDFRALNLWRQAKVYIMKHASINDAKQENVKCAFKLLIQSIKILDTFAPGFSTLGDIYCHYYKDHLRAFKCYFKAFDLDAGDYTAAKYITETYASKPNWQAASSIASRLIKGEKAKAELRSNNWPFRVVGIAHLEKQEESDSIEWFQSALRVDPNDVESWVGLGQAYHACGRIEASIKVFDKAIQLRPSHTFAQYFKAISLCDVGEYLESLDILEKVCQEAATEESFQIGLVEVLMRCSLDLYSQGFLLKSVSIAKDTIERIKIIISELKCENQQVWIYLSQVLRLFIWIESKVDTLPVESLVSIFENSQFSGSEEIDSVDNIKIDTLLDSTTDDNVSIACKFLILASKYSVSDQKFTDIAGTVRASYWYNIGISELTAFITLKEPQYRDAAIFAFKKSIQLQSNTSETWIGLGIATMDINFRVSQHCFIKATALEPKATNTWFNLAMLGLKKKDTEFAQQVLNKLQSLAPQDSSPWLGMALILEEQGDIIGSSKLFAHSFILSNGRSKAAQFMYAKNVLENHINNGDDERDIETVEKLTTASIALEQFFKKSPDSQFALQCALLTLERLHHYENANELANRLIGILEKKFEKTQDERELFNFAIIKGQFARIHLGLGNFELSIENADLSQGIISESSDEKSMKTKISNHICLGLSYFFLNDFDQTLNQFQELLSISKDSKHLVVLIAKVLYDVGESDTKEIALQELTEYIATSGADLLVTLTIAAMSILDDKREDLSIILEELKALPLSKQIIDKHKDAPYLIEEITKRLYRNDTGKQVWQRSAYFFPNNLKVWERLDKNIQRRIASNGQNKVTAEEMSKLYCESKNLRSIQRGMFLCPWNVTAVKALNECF
# Chain of UniProt Q96CV9 (whole entry, looked up): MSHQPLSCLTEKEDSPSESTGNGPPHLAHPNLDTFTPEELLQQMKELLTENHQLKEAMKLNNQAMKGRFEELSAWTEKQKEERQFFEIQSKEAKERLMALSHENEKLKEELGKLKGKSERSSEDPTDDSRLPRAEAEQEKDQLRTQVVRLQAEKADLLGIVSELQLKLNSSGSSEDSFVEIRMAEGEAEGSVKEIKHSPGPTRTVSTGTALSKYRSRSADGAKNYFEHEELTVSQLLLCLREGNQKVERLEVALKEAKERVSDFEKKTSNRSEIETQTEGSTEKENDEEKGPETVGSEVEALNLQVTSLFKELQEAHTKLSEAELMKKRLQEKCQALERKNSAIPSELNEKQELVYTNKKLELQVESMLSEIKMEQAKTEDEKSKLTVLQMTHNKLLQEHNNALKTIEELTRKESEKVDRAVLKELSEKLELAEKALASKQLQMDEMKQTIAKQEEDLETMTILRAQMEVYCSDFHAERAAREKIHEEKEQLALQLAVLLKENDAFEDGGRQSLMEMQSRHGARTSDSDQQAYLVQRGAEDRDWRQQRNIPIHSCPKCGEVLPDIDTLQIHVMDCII
# Chain of UniProt O34703 (whole entry, looked up): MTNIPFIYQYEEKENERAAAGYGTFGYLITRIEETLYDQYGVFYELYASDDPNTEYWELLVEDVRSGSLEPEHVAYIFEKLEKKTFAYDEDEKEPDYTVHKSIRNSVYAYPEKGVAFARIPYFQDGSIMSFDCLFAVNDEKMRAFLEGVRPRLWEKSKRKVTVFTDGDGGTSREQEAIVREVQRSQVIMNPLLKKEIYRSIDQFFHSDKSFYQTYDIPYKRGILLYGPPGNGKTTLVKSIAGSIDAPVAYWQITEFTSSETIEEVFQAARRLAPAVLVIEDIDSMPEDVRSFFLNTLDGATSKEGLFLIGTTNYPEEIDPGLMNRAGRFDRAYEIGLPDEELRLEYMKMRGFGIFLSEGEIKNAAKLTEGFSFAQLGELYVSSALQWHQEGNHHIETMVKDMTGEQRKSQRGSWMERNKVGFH
# Chain of UniProt Q9NPY3 (whole entry, unmodified, looked up): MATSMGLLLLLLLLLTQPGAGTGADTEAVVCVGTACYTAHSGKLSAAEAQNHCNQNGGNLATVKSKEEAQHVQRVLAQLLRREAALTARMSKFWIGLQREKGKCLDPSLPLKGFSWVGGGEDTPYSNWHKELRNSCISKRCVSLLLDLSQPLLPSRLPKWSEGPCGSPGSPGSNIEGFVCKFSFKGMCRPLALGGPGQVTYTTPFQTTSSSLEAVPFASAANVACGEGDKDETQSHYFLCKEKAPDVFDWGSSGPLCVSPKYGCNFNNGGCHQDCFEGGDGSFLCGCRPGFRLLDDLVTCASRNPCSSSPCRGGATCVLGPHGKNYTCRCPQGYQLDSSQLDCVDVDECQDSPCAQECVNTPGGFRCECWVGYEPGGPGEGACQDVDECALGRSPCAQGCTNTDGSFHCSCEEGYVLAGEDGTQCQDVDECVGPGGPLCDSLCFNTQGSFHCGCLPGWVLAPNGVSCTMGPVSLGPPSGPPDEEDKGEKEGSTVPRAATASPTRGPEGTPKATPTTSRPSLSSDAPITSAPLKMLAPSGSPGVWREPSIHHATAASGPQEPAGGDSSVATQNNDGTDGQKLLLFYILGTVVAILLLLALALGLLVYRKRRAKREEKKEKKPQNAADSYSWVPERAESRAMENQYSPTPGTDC
# Chain of UniProt O95166 (whole entry, looked up): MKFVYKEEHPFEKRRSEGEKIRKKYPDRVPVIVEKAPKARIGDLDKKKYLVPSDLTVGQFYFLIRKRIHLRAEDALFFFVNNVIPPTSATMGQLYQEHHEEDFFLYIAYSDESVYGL
Molecule,tested on,test,system,setting,how to read,quantity,value
B1 (POMP),"PSMA4 (Homo sapiens, UniProt P25789)",cryo-EM,,,,binding,binds
"HEEWEMVPRHS (STBD1 200-210 (Homo sapiens, UniProt O95210))","GABARAP (Homo sapiens, UniProt O95166)",SEC,,,,binding,binds
B2 (PRKCQ),"PTK2 (Homo sapiens, UniProt Q05397)",pull-down,,,,binding,binds
B3 (EFR3A 721-791 F755A),TTC7B/FAM126A FAM126A 1-308 (Homo sapiens),BLI,,,,binding,binds
B4 (POLDIP2 52-368 H225A),"CLPX/CLPP CLPP 14-mer, CLPX hexamer, ATPγS-bound 65-633 (Homo sapiens)",co-IP,,,,binding,binds
B5 (RAB32 T39N),"OPTN (Homo sapiens, UniProt Q96CV9)",pull-down,,,,binding,binds
QSARYRDTEL,human MAGI1-2/6 PDZ construct (MBP fusion),automated holdup,"peptide, crude extract","concentration not given, corrected by standard peak, unit not given","reference: biotin control resin, higher = stronger binding",binding intensity,0.0397
B6 (YDJ1 residues 1-109 G70N),"SSA1 T201A (Saccharomyces cerevisiae, UniProt P10591)",NMR titration,,with: ATP,,binding,binds
GACCGACCGACC (dsDNA),Fibroin-modulator-binding protein-1,ITC,"double-stranded DNA, one strand shown",,,Kd,12.8 µM
GSGAGKETSF,human MAGI1-2/6 PDZ construct (MBP fusion),automated holdup,"peptide, crude extract","concentration not given, uncorrected, unit not given","reference: biotin control resin, higher = stronger binding",binding intensity,0.0474
B7 (PRDX6),"ALDH2 (Homo sapiens, UniProt P05091)",co-IP,,,,binding,binds
B8 (POL30 1-258),"PIF1 233-859 (Saccharomyces cerevisiae, UniProt P07271)",pull-down,,,,binding,binds
AGCTAGCTAGCT (dsDNA),Fibroin-modulator-binding protein-1,ITC,"double-stranded DNA, one strand shown",,,Kd,3.38 ± 0.426 µM
B9 (CCA1 204-405),"BZIP28 1-322 (Arabidopsis thaliana, UniProt Q9SG86)",pull-down,,,,binding,binds
B10 (IGFBP7 30-159 Q150A),"CD93 25-347 (Homo sapiens, UniProt Q9NPY3)",ITC,,25 °C,,binding,binds
B11 (HY5),"UBP14 (Arabidopsis thaliana, UniProt Q8L6Y1)",pull-down,,,,binding,binds
B12 (ATG9 2-318),"ATG17 (Saccharomyces cerevisiae, UniProt Q06410)",pull-down,,,,binding,binds
B13 (SKI7 1-235),"SKI3 (Saccharomyces cerevisiae, UniProt P17883)",cryo-EM,,,,binding,binds
"VRN5 (Arabidopsis thaliana, UniProt Q9LHF5)","COP1 (Arabidopsis thaliana, UniProt P43254)",pull-down,,,,binding,binds
"LGGLTNGSGRYISAAPGAEAKYRSASS (PUM1 774-800 (Homo sapiens, UniProt Q14671); sequence looked up)",CNOT1/CNOT2/CNOT3 C-terminal NOT module 1833-2361,pull-down,,,,binding,binds
"QSTGTEPFFKQKSLLL (POLH 524-539 (Homo sapiens, UniProt Q9Y253); sequence looked up)","REV1 1158-1251 (Homo sapiens, UniProt Q9UBZ9)",NMR chemical shift perturbation,peptide,,,binding,binds
CCT6A,,co-immunoprecipitation,human plasma,"unit not given, with: Band 3 peptide 1-56 bait",reference: negative control,co-IP enrichment,0
"α-sarcoglycan mature, N-linked glycans (Oryctolagus cuniculus, UniProt Q28686)","DAG1 alpha-dystroglycan (Oryctolagus cuniculus, UniProt Q28685)",cryo-EM structure,,,,binding,binds
SEC11A,,co-immunoprecipitation,human RBC cytosol,"unit not given, with: Band 3 peptide 1-56 bait",reference: negative control,co-IP enrichment,0.65
B14 (Sgip1 69-156),"AP2A2/AP2B1/AP2M1/AP2S1 core, lacking appendage domains (Mus musculus)",cryo-EM,,,,binding,binds
"LGGLTNGSGRYISAAPGAEAKYRSASS (PUM1 774-800 (Homo sapiens, UniProt Q14671); sequence looked up)",CNOT1/CNOT2/CNOT3 NOT module 1833-2361,pull-down,,,,binding,binds
"yjoB (Bacillus subtilis, UniProt O34703)","katA (Bacillus subtilis, UniProt P26901)",SEC,,with: AMPPNP,,binding,binds
B15 (AIR2 1-223 C84S/C104S),"PAP2 D236A/D238A (Saccharomyces cerevisiae, UniProt P53632)",HDX-MS,,,,binding,binds

# Repeated from above:
Molecule,tested on,test,system,setting,how to read,quantity,value
"VRN5 (Arabidopsis thaliana, UniProt Q9LHF5)","COP1 (Arabidopsis thaliana, UniProt P43254)",pull-down,,,,binding,binds
B6 (YDJ1 residues 1-109 G70N),"SSA1 T201A (Saccharomyces cerevisiae, UniProt P10591)",NMR titration,,with: ATP,,binding,binds
B4 (POLDIP2 52-368 H225A),"CLPX/CLPP CLPP 14-mer, CLPX hexamer, ATPγS-bound 65-633 (Homo sapiens)",co-IP,,,,binding,binds
